# Results collected from several papers.
# Compare with care: the assays were run in different laboratories. ± marks the error that the study gave.
# Sequence of UniProt Q12933 (whole entry, looked up): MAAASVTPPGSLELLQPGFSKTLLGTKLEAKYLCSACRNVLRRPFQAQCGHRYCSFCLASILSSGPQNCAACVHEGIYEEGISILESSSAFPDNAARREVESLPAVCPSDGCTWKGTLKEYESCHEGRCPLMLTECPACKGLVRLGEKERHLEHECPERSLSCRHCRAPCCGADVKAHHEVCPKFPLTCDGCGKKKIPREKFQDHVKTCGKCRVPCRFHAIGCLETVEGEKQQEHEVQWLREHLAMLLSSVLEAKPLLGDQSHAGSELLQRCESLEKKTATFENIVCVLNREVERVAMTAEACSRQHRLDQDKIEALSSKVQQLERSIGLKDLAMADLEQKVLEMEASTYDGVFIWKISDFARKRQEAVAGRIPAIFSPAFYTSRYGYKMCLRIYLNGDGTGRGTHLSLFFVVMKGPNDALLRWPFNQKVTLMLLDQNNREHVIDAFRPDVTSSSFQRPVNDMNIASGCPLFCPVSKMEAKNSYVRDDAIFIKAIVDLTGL
# Sequence of UniProt Q8TDU6 (whole entry, looked up): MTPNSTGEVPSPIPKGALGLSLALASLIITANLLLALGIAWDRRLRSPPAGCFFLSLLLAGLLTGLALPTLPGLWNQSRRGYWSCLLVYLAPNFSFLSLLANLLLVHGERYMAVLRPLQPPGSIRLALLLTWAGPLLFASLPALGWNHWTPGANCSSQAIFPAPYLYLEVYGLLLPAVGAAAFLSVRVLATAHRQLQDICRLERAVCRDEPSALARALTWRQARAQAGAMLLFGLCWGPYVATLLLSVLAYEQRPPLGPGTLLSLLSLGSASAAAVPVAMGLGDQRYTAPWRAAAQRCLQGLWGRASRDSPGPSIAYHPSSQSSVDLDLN
# Sequence of UniProt P15735 (whole entry, looked up): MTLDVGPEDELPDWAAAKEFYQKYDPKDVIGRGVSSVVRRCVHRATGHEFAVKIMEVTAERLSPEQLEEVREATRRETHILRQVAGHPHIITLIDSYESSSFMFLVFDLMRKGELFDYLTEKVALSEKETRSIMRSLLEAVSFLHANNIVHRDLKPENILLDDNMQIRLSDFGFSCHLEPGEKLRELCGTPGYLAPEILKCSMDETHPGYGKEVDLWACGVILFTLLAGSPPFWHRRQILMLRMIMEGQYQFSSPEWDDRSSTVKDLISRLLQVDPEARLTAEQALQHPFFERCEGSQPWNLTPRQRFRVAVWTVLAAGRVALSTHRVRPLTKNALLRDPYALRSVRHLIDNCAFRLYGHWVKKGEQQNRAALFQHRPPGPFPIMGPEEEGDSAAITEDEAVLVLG
# Sequence of UniProt P48357 (whole entry, looked up): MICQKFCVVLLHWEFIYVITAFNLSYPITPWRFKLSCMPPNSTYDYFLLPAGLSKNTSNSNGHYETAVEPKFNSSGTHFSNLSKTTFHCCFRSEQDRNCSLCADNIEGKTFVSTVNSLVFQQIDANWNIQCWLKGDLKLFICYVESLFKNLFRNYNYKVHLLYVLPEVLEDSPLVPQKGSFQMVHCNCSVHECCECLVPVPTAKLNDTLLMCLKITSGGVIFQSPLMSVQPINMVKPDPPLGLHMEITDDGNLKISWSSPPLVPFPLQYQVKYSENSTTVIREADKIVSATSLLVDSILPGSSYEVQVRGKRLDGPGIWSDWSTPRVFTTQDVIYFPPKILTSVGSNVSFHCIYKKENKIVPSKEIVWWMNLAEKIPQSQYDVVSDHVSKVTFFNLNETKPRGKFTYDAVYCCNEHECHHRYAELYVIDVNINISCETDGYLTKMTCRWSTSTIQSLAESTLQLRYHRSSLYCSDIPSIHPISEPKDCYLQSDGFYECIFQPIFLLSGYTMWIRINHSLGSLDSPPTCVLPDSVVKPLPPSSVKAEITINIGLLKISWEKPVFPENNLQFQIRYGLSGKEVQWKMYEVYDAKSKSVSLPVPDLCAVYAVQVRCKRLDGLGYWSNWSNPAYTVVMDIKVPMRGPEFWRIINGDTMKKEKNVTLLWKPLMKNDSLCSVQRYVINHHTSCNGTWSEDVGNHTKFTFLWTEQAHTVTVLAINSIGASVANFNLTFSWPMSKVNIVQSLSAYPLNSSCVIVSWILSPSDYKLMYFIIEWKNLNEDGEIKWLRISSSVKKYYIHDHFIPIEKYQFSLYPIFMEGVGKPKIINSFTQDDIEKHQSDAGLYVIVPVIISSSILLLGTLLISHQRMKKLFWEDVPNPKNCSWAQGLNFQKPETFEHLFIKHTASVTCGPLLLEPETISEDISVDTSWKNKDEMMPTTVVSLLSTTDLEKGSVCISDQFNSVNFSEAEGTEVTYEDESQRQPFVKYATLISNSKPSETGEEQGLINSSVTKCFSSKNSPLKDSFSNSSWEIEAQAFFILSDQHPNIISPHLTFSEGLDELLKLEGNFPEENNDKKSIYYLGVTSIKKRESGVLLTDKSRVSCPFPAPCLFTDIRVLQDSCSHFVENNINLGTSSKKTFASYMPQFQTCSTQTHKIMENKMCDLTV
SMILES,tested on,assay,test system,setting,scale,measurement,result
CC[C@H](C)[C@H](NC(=O)CN)C(=O)NCC(=O)N[C@@H](CCCCN)C(=O)N[C@@H](Cc1ccccc1)C(=O)N[C@@H](CC(C)C)C(=O)N[C@@H](CCCCN)C(=O)N[C@@H](CCCCN)C(=O)N[C@@H](C)C(=O)N[C@@H](CCCCN)C(=O)N[C@@H](CCCCN)C(=O)N[C@@H](Cc1ccccc1)C(=O)NCC(=O)N[C@@H](CCCCN)C(=O)N[C@@H](C)C(=O)N[C@@H](Cc1ccccc1)C(=O)N[C@H](C(=O)N[C@@H](CCCCN)C(=O)N[C@H](C(=O)N[C@@H](CC(C)C)C(=O)N[C@@H](CCCCN)C(=O)N[C@@H](CCCCN)C(N)=O)[C@@H](C)CC)C(C)C,,reversed-phase UPLC,"C18 column, TFA",,,elution acetonitrile content,46.9%
COc1cc2c(cc1OC)CN(CCc1ccc(NC(=O)c3cccc4c(=O)c5cccc(OC)c5[nH]c34)cc1)CC2,,,"CD-1 mouse, male, plasma","intraperitoneal, 1 mg/kg",,half-life,13.2 h
COc1ccc(C[C@@H]2NC(=O)[C@H]([C@@H](C)O)NC(=O)[C@@H]3[C@@H]4CCN3C(=O)[C@@H]3Cc5cn(c6ccc(F)cc56)CCCCCCN(Cc5ccc(cc5)CCNC(=O)[C@]5(C)CCCN5C2=O)C(=O)CCC(=O)N[C@@H](C)C(=O)N[C@H](CNC(=O)CCCCC[N+](C)(C)C)C(=O)N[C@@H](Cc2cccc(c2)CNC(=O)CO4)C(=O)N3)cc1,,measured: abdominal discomfort,human,dose not given,,participants with adverse event,2%
COc1ccc(N2C(=O)N(c3c(C)cccc3Cl)Cc3cnc(Nc4ccc(C5CCN(C)CC5)cc4OC)nc32)nc1,"PHKG2 (Homo sapiens, UniProt P15735)","kinase activity, inhibitor",,"0.5 µM, kinase PHK-GAMMA2",,inhibition,7.38%
COc1cc2c(Oc3ccc4[nH]c(C)cc4c3F)ccnc2cc1OCC1(N)CC1,,,paediatric recurrent refractory sarcoma,8 mg/kg,,grade 3 Hypertension,6.7%
Cn1ncc(-c2nc(N[C@H]3CC[C@H](N)CC3)ncc2Cl)c1CC1CC1,,HPLC-MS/MS,"patients, plasma","oral, 11 mg, day 5",,Cmax,52.3 ng/mL
O=C(O)CCCOc1ccc(F)cc1-c1cc(-c2ccccc2C(F)(F)F)n(-c2ccccc2)n1,,measured: ALP,"Crl:CD(SD) rats, female, serum","iv, 25 µg/kg, 14 days",,serum enzyme activity,108 ± 19 U/L
C[C@H]1CN(c2n[nH]c3nc(N[C@H]4CC[C@H](NS(=O)(=O)CCC(F)(F)F)CC4)ncc23)CCO1,"TNF receptor-associated factor 2 (Homo sapiens, UniProt Q12933)","Kinobeads competition, measured: TRAF2",,"0.8 µM, unit not given",baseline: vehicle,remaining binding,1.08
CC1(C)[C@H](C(=O)O[C@H](C#N)c2cccc(Oc3ccccc3)c2)[C@@H]1C=C(Br)Br,,measured: CYP1A2,"human, age 5 years, recombinant human CYP1A2",0.1 µM,,enzyme contribution to clearance,0.38%
COc1ccnc(C(=O)N[C@H]2COC(=O)[C@H](Cc3ccccc3)[C@@H](OC(=O)C(C)C)[C@H](C)OC2=O)c1OCOC(=O)C(C)C,,,Colinus virginianus,"concentration not given, long-term toxicity",,NOEC,12.1 mg/kg bw/day
CC[C@H](C)[C@@H]1NC(=O)[C@@H]2CCCN2C(=O)[C@H](CC(C)C)NC(=O)[C@H](CC(C)C)NC(=O)CNC(=O)[C@@H](NC(=O)[C@@H](NC(=O)[C@H](CC(=O)O)NC(=O)CNC(=O)[C@@H](NC(=O)[C@H](C)NC(=O)CNC(=O)[C@H](CCCCN)NC(=O)[C@H](CC(C)C)NC(=O)[C@H](CC(C)C)NC(=O)[C@H](CCCCN)NC(=O)CNC(=O)[C@@H](NC(=O)[C@@H](N)CC(C)C)C(C)C)C(C)C)C(C)C)CSSC[C@@H](C(=O)O)NC1=O,,"RNA-seq, measured: Lmnb1","mouse, traumatic brain injury model, frontal cortex and hippocampus",dose not given,baseline: TBI alone,log2 fold change,-1.55
CO[C@H]1C[C@@H]2CC[C@@H](C)[C@@](O)(O2)C(=O)C(=O)N2CCCC[C@H]2C(=O)O[C@H]([C@H](C)C[C@@H]2CC[C@@H](OC(=O)NCCOCCOCCOCCOCCOCCOCCOCCOCCC(=O)N3CCc4cc(Cn5nc(-c6ccc7oc(N)nc7c6)c6c(N)ncnc65)ccc4C3)[C@H](OC)C2)C[C@@H](O)[C@H](C)/C=C(\C)[C@@H](O)[C@@H](OC)C(=O)[C@H](C)C[C@H](C)/C=C/C=C/C=C/1C,,,patients with advanced solid tumours,"intravenous, 16 mg weekly, any grade",,AE leading to discontinuation,25%
Oc1ccc2c3c1O[C@H]1[C@@H](O)CC[C@@]4(O)[C@@H](C2)N(CC2CCC2)CC[C@]314,"GPBAR1 (Homo sapiens, UniProt Q8TDU6)","receptor activation, TANGO luminescence",,"concentration not given, unconfirmed screen",baseline: vehicle control,log2 fold change,-0.096
Cc1cc2c(c(O)c1O)C(=O)c1c(O)cc(O)cc1C2=O,HK-2 co-cultured with HepaRG,MTT,,"66.67 µM, 48 h",baseline: untreated control,cell viability,97.8 ± 15.5%
COc1cc(Nc2ncc(F)c(Nc3ccc4c(n3)NC(=O)C(C)(C)O4)n2)cc(OC)c1OC,"Leptin receptor (LEPR, Homo sapiens, UniProt P48357)",,,,,IC50,> 10 µM
C[C@@H]1COCCN1c1cc([C@]2(O)C[C@H]3CC[C@@H](C2)O3)c2cnn(-c3cc[nH]n3)c2n1,,,NOD-SCID tumour-bearing mice,"oral, 14 days, 3 days on 4 off weekly",,MTD,30 mg/kg
CCCCCCC#Cc1cncc(-c2nnc(SCc3ccc([N+](=O)[O-])o3)n2C2CC2)c1,,,human plasma,plasma stability,,t1/2,4.32 h
O[C@H]1CCCN[C@@H]1CCCn1cnc2c(Cl)c(Cl)ccc21,,,"healthy humans, plasma","oral, 150 mg, together with: nintedanib 150 mg",,Vd/F at steady state,859 L
Cn1cncc1-c1c(F)cncc1NC(=O)c1c(N)nn2cc(F)cnc12,,,human patients,"oral, 270 mg once daily, 21 days",,dose-limiting toxicity upper GI haemorrhage,25%
CC(=O)OC[C@H]1O[C@@H](Oc2cc(O)cc3cc4oc(C)cc(=O)c4c(O)c23)[C@H](O)[C@@H](O)[C@@H]1O,HK-2 co-cultured with HepaRG,MTT,,"16.67 µM, 48 h",baseline: untreated control,cell viability,96.6 ± 9.43%
C[C@]1(O)C[C@@](N)(c2ccc(-c3nc4n(c3-c3ccccc3)COc3ccncc3-4)cc2)C1,,,"human, advanced or metastatic solid tumours","16 mg once daily, phase I dose escalation",,patients with serious AE,33.3%

# Some of these lines once more:
SMILES,tested on,assay,test system,setting,scale,measurement,result
COc1ccc(N2C(=O)N(c3c(C)cccc3Cl)Cc3cnc(Nc4ccc(C5CCN(C)CC5)cc4OC)nc32)nc1,"PHKG2 (Homo sapiens, UniProt P15735)","kinase activity, inhibitor",,"0.5 µM, kinase PHK-GAMMA2",,inhibition,7.38%
COc1cc2c(Oc3ccc4[nH]c(C)cc4c3F)ccnc2cc1OCC1(N)CC1,,,paediatric recurrent refractory sarcoma,8 mg/kg,,grade 3 Hypertension,6.7%
Cn1ncc(-c2nc(N[C@H]3CC[C@H](N)CC3)ncc2Cl)c1CC1CC1,,HPLC-MS/MS,"patients, plasma","oral, 11 mg, day 5",,Cmax,52.3 ng/mL
